Published values from different studies.
Each line is one published result; not all experiments were run side by side. ± gives the spread as reported.

| SMILES | test | system | setting | how to read | quantity | result |
| --- | --- | --- | --- | --- | --- | --- |
| Cc1nc2cccc(OCC(C)(C)C(=O)NC(C)C)c2c(N)c1C(=O)O | – | male CD-1 mouse, bone marrow | oral, 2000 mg/kg, 24 h | – | micronucleated normochromatic erythrocytes | 0.6 per 2000 PCEs |
| CCN1CCN(Cc2ccc(NC(=O)c3ccc(C)c(NC(=O)c4cncc(-c5cccs5)c4)c3)cc2C(F)(F)F)CC1 | LC-MS/MS | C57BL/6 mouse, plasma | intraperitoneal, 30 mg/kg single dose, 6 h | – | mean plasma concentration | 171 ng/mL |
| O=C(COc1ccc(Cl)cc1)NC12CC(c3nnc([C@H]4C[C@@H](OC(F)(F)F)C4)o3)(C1)C2 | – | healthy human both sexes, plasma | oral, 145 mg once daily, day 14, mean | – | steady-state Ctrough | 5.44 µM |
| COc1ccc([C@@H](O)c2cc(-c3ncnc4cc(N5CCOCC5)ccc34)c(F)cc2Cl)nn1 | – | locally advanced rectal cancer patients | 100 mg, with: capecitabine and radiotherapy | – | gastrointestinal disorder TEAE | 100% |
| Cc1cc(-c2nccc3c2ccn3CC(=O)Nc2ccc(-c3cnccn3)cn2)ccn1 | – | human | SAD part, single 40 mg dose | – | subjects with any IMP-related TEAE | 16.7% |
| CCNCCNC(=O)c1c(C)[nH]c(/C=C2\C(=O)Nc3ccc(F)cc32)c1C | – | human, serum | 37.5 mg maintenance, median | – | serum concentration/dose ratio | 0.39 |
| CC(C)NCCCC[C@@H]1NC(=O)[C@H](Cc2ccc(O)cc2)NC(=O)[C@H](Cc2ccccc2)NC(=O)CC[C@H](C(=O)N[C@@H](CCCCNC(C)C)C(=O)N[C@@H](CCCCNC(=O)[C@H](CCC(=O)O)NC(=O)[C@H](CCC(=O)O)NC(=O)[C@H](CCC(=O)O)NC(=O)CN2CCN(CC(=O)O)CCN(CC(=O)O)CCN(CC(=O)O)CC2)C(N)=O)NC(=O)CNC(=O)[C@H](Cc2ccc3ccccc3c2)NC(=O)[C@@H](CCCNC(=N)N)NC1=O [gallium-68 labelled] | – | mouse with Daudi xenograft, testes | intravenous, 2 h | – | tissue uptake | 0.05 %ID/g |
| Cn1cc(-c2cn3nccc3c(-c3cnn([C@]4(CC#N)C[C@@H](C#N)C4)c3)n2)cn1 | – | healthy humans fasted, plasma | oral, 30 mg single dose, geometric mean | – | dose-normalised AUC(0-t) | 21.3 ng·h/mL/mg |
| CC(C)(C(=O)N1CCOc2c(C#N)cncc2C1)C(F)F | measured: Radiculopathy | human | oral, 40 mg, CSF pharmacokinetic cohort | – | subjects with adverse event | 16.7% |
| CN(CC#N)C(=O)C[C@H](Nc1nc2ccccc2[nH]1)c1cccc(C(F)(F)F)c1 | – | human | intravenous infusion, 1.5 mg/kg, 1 mg/mL formulation | – | steady-state volume of distribution | 41.2 ± 5.59 L |
| O=C1CCc2ccc(OCCCCN3CCN(c4cccc(Cl)c4Cl)CC3)cc2N1 | – | CYP2D6 normal metabolizers | concentration not given, genotype-based phenotype, long-acting oral or depot | – | gastrointestinal symptom frequency | 4.7% |
| CCO | – | human | concentration not given, treatment-emergent adverse event | – | priapism | 11.1% |
| FC(F)(F)c1ccc(CNc2ccc(Cc3c[nH]c4ncc(Cl)cc34)cn2)cn1 | measured: Fatigue | patients with advanced solid tumours, all cohorts | oral, 1000 mg/day, any grade | – | treatment-related adverse events | 55% |
| CC(C)n1c(Nc2cccnc2)nc2cnc(Nc3ccc(N4CCN(C)CC4)cc3)nc21 | measured: eosinophil count increased | healthy male subjects | oral, 100 mg, study, with: gemfibrozil | – | subjects with adverse event | 0% |
| COc1ccc([N+](=O)[O-])cc1NC(=O)C(C)Oc1ccccc1C (stereo not drawn) | – | octanol/buffer | pH 11, known kinase inactives set | – | logP | 4.48 |
| CCc1cc(C(=O)NC)c2nccc(N3CCc4c(cc(Cn5ccnc5)cc4-c4cn(C)nc4C(F)(F)F)C3=O)c2c1 | – | Sprague Dawley rats | oral, 100 mg/kg twice daily, 7 days | reference: vehicle | serum LDL change | 2.9% |
| CC1CCN(S(=O)(=O)c2ccc(Cl)c(C(=O)Nc3ccc(C(=O)O)cc3)c2)CC1 | – | octanol/buffer | pH 11, known kinase inactives set | – | logP | 0.15 |
| CC[C@H](C)[C@@H]([C@@H](CC(=O)N1CCC[C@H]1[C@H](OC)[C@@H](C)C(=O)N[C@@H](Cc1ccccc1)C(=O)NCCCO)OC)N(C)C(=O)[C@@H](NC(=O)[C@H](C(C)C)N(C)C)C(C)C | – | human liver microsomes 1 mg/mL | 1 µM, with: ketoconazole or CYP3cide | – | inhibition of metabolism | ~100% |
| COc1ccc(C(=O)O)cc1OS(=O)(=O)O | – | human, cerebrospinal fluid | concentration not given, median | – | CSF concentration | 18.8 nM |
| COc1c(OCCCN2CCOCC2)ccc2c1N=C(NC(=O)c1cnc(N)nc1)N1CCN=C21 | – | human | – | reference: females over males | decrease in clearance | 16.7% |
| O=C(Nc1cnccc1Cl)N1CCN(Cc2ccc3c(c2)OC(F)(F)O3)CC1 | multiple ascending dose | young men | 75 mg, treatment-emergent adverse events | – | injection site pain incidence | 16.7% |

For quick reference, copied from above:
| SMILES | test | system | setting | how to read | quantity | result |
| --- | --- | --- | --- | --- | --- | --- |
| CC[C@H](C)[C@@H]([C@@H](CC(=O)N1CCC[C@H]1[C@H](OC)[C@@H](C)C(=O)N[C@@H](Cc1ccccc1)C(=O)NCCCO)OC)N(C)C(=O)[C@@H](NC(=O)[C@H](C(C)C)N(C)C)C(C)C | – | human liver microsomes 1 mg/mL | 1 µM, with: ketoconazole or CYP3cide | – | inhibition of metabolism | ~100% |
| O=C(Nc1cnccc1Cl)N1CCN(Cc2ccc3c(c2)OC(F)(F)O3)CC1 | multiple ascending dose | young men | 75 mg, treatment-emergent adverse events | – | injection site pain incidence | 16.7% |
| O=C1CCc2ccc(OCCCCN3CCN(c4cccc(Cl)c4Cl)CC3)cc2N1 | – | CYP2D6 normal metabolizers | concentration not given, genotype-based phenotype, long-acting oral or depot | – | gastrointestinal symptom frequency | 4.7% |
